Experimental data of several laboratories.
Values joined by “and” are separate records of one study, mostly repeats; a detail may differ. ± gives the spread as reported.
UniProt Q9Y2J8, sequence (whole entry, looked up): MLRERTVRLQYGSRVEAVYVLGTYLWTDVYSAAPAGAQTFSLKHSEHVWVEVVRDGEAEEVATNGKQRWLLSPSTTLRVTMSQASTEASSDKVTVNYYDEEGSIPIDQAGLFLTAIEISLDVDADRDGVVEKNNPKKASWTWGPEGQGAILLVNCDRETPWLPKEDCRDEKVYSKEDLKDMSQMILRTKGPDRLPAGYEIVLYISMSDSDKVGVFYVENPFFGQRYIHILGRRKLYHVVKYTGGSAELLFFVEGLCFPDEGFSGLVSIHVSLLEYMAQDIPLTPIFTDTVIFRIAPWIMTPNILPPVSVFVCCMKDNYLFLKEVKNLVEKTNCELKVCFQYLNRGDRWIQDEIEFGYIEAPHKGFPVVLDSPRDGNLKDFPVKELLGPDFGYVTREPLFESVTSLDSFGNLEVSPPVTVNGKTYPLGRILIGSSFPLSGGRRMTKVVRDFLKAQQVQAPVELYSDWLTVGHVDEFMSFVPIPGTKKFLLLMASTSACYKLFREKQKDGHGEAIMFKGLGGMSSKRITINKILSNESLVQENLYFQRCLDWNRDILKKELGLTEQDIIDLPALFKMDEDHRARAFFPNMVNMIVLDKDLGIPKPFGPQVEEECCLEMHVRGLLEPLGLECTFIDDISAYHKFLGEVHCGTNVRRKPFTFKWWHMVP
UniProt P53634, sequence (whole entry, looked up): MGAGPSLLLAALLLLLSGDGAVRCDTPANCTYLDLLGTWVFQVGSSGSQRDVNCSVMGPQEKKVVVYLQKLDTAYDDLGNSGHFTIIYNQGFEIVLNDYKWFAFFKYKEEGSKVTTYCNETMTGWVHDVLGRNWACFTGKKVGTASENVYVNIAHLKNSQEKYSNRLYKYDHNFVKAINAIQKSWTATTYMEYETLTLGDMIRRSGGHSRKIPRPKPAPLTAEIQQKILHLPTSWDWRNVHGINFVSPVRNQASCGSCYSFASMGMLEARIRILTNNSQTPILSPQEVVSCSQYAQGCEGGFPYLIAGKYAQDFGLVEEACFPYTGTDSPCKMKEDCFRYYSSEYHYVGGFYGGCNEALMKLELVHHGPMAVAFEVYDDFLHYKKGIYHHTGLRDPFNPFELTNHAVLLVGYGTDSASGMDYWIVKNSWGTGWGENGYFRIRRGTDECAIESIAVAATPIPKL
UniProt O13828, sequence (whole entry, looked up): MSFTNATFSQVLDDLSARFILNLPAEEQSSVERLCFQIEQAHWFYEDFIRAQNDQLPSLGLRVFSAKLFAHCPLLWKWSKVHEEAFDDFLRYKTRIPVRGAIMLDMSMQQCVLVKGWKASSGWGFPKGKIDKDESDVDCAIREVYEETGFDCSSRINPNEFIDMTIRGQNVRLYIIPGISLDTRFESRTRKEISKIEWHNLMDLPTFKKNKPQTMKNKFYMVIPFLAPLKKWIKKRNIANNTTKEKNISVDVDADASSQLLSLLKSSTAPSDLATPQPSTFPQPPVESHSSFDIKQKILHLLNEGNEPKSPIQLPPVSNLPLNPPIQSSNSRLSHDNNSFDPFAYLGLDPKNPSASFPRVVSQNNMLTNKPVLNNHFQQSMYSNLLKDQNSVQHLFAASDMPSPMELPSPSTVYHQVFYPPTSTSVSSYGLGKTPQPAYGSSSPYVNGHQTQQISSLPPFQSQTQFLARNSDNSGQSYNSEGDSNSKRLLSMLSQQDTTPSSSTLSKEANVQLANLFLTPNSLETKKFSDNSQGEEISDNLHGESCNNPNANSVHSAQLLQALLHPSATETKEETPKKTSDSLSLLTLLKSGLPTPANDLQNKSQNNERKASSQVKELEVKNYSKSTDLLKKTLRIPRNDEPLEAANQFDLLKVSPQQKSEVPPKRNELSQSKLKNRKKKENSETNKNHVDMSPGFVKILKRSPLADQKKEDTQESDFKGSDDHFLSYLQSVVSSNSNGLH
UniProt O42275, sequence (whole entry, looked up): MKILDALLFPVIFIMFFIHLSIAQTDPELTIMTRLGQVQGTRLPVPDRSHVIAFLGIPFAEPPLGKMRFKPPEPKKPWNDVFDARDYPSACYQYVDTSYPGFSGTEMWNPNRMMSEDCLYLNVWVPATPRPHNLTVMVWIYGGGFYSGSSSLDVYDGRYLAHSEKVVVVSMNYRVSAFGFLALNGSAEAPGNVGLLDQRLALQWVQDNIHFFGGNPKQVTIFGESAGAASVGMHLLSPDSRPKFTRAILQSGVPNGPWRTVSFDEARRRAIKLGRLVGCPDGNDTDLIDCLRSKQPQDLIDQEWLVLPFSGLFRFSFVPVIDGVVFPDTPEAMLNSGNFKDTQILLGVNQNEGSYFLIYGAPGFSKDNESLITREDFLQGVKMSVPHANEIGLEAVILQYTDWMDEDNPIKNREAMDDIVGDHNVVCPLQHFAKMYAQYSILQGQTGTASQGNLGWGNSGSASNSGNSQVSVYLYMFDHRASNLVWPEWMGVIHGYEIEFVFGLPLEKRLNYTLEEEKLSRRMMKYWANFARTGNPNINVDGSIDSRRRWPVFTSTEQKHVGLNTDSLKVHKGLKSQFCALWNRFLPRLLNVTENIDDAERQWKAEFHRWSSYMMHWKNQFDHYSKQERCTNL
UniProt P51957, sequence (whole entry, looked up): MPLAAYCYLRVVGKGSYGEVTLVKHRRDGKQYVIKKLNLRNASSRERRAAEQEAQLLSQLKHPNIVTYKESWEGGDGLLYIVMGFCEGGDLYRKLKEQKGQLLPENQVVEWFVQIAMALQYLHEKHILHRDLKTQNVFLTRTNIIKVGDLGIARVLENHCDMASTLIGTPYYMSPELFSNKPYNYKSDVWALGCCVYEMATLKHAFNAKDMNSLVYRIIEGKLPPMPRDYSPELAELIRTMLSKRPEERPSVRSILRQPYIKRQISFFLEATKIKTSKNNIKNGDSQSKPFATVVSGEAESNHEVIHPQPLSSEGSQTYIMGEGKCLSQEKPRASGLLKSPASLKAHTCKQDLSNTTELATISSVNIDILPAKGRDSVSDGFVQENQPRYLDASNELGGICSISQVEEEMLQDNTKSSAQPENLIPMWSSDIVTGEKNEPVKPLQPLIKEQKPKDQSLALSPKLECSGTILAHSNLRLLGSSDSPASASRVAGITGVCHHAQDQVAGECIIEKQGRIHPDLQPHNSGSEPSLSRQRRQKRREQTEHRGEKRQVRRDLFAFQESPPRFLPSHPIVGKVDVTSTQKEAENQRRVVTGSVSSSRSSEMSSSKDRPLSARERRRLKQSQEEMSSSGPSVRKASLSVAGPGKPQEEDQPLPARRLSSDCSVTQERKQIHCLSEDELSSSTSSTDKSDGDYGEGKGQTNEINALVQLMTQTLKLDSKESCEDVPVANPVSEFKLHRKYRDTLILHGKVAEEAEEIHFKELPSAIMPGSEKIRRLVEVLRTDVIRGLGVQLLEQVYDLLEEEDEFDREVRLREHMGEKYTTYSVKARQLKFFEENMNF
UniProt O60285, sequence (whole entry, looked up): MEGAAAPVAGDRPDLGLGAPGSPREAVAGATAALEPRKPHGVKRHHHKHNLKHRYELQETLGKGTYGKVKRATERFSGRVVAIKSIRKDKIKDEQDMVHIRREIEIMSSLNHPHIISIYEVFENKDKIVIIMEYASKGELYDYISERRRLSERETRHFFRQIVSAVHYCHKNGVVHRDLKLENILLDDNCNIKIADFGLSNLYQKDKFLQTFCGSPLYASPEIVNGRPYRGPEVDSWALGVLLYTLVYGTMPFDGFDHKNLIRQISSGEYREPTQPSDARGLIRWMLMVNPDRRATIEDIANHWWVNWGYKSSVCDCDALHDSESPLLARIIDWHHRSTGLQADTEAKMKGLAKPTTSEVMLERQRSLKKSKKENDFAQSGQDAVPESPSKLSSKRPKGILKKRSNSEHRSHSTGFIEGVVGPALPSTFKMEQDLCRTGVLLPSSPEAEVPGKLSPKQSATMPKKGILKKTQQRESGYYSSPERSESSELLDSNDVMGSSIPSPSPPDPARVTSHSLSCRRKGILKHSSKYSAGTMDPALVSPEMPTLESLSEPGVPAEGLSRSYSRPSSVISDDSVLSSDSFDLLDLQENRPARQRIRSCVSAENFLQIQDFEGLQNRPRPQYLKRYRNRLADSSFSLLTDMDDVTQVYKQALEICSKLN
UniProt P41145, sequence (whole entry, looked up): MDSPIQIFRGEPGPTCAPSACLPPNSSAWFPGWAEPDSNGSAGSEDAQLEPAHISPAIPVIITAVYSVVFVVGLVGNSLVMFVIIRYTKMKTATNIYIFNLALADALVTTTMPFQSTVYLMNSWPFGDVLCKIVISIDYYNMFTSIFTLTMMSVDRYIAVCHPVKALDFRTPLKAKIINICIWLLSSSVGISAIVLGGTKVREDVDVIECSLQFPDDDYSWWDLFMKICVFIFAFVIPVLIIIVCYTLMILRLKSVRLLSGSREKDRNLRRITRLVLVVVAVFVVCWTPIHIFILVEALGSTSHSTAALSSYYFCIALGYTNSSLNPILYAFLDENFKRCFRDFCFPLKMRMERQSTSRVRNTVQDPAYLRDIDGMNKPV
UniProt Q00536, sequence (whole entry, looked up): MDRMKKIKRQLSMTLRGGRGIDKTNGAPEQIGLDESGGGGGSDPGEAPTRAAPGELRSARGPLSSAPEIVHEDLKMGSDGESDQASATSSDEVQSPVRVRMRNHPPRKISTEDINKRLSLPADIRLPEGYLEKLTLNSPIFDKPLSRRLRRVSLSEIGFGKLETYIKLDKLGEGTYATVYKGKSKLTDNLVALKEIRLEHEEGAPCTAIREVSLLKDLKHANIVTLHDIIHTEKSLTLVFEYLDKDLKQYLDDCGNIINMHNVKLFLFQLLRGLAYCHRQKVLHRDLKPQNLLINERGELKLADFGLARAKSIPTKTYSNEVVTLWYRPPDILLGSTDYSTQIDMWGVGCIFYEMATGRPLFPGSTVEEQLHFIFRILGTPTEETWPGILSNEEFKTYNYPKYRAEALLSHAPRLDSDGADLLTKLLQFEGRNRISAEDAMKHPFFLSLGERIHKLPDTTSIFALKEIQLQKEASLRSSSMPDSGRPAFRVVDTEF

With `O=C(O)C(/C=C/c1c(Cl)cccc1Cl)=N\Nc1nc(-c2ccc([N+](=O)[O-])cc2)cs1` the selectivity index was 8.73 (ache (Electrophorus electricus, UniProt O42275); Ellman; relative to: IC50 BChE over IC50 AChE).
`C[n+]1cn([C@@H]2O[C@H](COP(=O)([S-])OP(=O)(O)OP(=O)(O)OP(=O)([S-])OC[C@H]3O[C@@H](n4c[n+](C)c5c(O)nc(N)nc54)[C@H](O)[C@@H]3O)[C@@H](O)[C@H]2O)c2nc(N)nc(O)c21` (stereo partly drawn) gave a kmax of 0.28 ± 0.04 min⁻¹ (mRNA decapping complex subunit 2 (dcp2, Schizosaccharomyces pombe, UniProt O13828); single-turnover kinetics; 29-nt native-capped RNA substrate; 0.25 mM).
With `O=C1NC(=O)c2c1c1cc(F)c[n+]3c1c1c2c2cc(O)ccc2[n]1[Ru-4]312([N]=C=S)[S+]3CC[S+]1CC[S+]2CC3` (stereo not drawn) the remaining activity was 78% (TEK (Homo sapiens, UniProt Q02763); enzyme activity; 100 nM, human enzyme, together with: 10 µM ATP; relative to: untreated).
For `N[C@H](C(=O)N1CCCC1)C1CCN(c2nccc3c(-c4ncc(Cl)cc4Cl)cccc23)CC1`, the kcat was 1.48 s⁻¹ and 1.31 s⁻¹ (PADI2 (Homo sapiens, UniProt Q9Y2J8); enzyme activity; 0.006291 µM, together with: Ca2+ 0.25 mM).
For `CC(C)Oc1ccc(B(O)O)c(F)n1`, the selectivity ratio was 1680 (Chymotrypsinogen A (Bos taurus, UniProt P00766); pNA substrate hydrolysis; relative to: Ki protease over Ki AmpC).
The remaining binding of `Nc1ccc(/C=C/C(=O)N2CCc3c(oc4c(-c5ccc(F)cc5)cc(-c5ccc(C(=O)N6CCC(F)(F)CC6)cn5)cc34)C2)cn1` is reported as 100% (ERBB2 (Homo sapiens, UniProt P04626); binding, competition with immobilised ligand; 1 µM).
The tissue uptake of `N=C(N)NCCC[C@@H]1NC(=O)[C@H](CCCCNC(=O)CCC(NC(=S)Nc2ccc(CC3CN(CC(=O)O)CCN(CC(=O)O)CCN(CC(=O)O)CCN3CC(=O)O)cc2)C(=O)NCCCC[C@@H]2NC(=O)[C@@H](Cc3ccc(O)cc3)NC(=O)[C@H](CC(=O)O)NC(=O)CNC(=O)[C@H](CCCNC(=N)N)NC2=O)NC(=O)[C@@H](Cc2ccc(O)cc2)NC(=O)[C@H](CC(=O)O)NC(=O)CNC1=O` (stereo partly drawn) [scandium-44 labelled] is reported as 0.064 ± 0.016 %ID/g (ex vivo γ-counting; female athymic nude mice, U-87 MG xenograft, spleen; intravenous, 4 h, together with: cRGD 50 mg/kg blocking).
The inhibition of `CC(C)[C@H]1NC(=O)C[C@H]2/C=C/CCSSC[C@@H](NC1=O)C(=O)N[C@H](Cc1cccc3ccccc13)C(=O)NCC(=O)O2` is reported as 0.189% (NUAK1 (Homo sapiens, UniProt O60285); enzyme activity, inhibitor; 10 µM).
`Cc1ccc(N2CC3CCC(C2)N3C)cc1C(=O)N[C@H](C)c1cc(-c2cnn(C)c2)nc2ccccc12` has a remaining activity of 96.9% (Caspase-3 (CASP3, Homo sapiens, UniProt P42574); enzyme activity; 30 µM, 0.5 h).
`CN(C)[C@H]1C[C@@]23CC[C@@]4(O2)C(=CC[C@]2(C)[C@@H](c5ccc6ccncc6c5)CC[C@H]24)C=C3[C@@H](O)[C@@H]1O` has an inhibition of 4.2% (NEK4 (Homo sapiens, UniProt P51957); ATP probe labelling, inhibitor, KiNativ profiling; 1 µM).
`CCOC(=O)[C@@H]1Cc2c(cc([N+](=O)[O-])cc2[N+](=O)[O-])[C@H](O)[C@]12C(=O)Nc1ccc(Br)cc12` gave a remaining binding of 89% (CDK16 (Homo sapiens, UniProt Q00536); binding, competition with immobilised ligand; 0.1 µM).
For `CC(C)(O)C(=O)N1CCN(C(=O)Cc2ccc(Cl)c(Cl)c2)[C@H]2[C@H]1COC[C@@H]2N1CCCC1` (single isomer, unassigned), the Emax was 60% (OPRK1 (Homo sapiens, UniProt P41145); β-arrestin-2 recruitment, agonist; U2OS; 1.5 h; relative to: U-69593 maximal response).
`Cc1sc2c(c1C)C(c1ccc(Cl)cc1)=NC(CC(=O)OC(C)(C)C)c1nnc(C)n1-2` (stereo not drawn) gave an inhibition of 61% (ADORA3 (Homo sapiens, UniProt P0DMS8); ligand displacement, radioligand; 1 µM).
`CC(C)C[C@H](NC(=O)[C@H]1O[C@@H]1C(=O)O)C(=O)NCCCCN=C(N)N` gave a Hill slope of -1.27 (CTSC (Homo sapiens, UniProt P53634)).
Under “organ-to-brain weight ratio”, `O=C1NC2(CC2)COc2ncc(F)cc2[C@H]2COCCN2c2ccn3ncc1c3n2` is recorded as 53.9 ± 7.77% (Sprague-Dawley rat, male, spleen; oral, 5 mg/kg/day, 4 weeks, end of treatment).
For `CC[C@H](C)[C@H](NC(=O)[C@H](CO)NC(=O)[C@H](Cc1ccc(O)cc1)NC(=O)[C@H](Cc1ccc(O)cc1)NC(=O)[C@H](CC(N)=O)NC(=O)CNC(=O)[C@H](CO)NC(=O)[C@H](Cc1ccc(O)cc1)NC(=O)[C@H](CO)NC(=O)[C@H](CO)NC(=O)[C@H](CC(N)=O)NC(=O)COCCOCCNC(=O)CN1CCN(CC(=O)O)CCN(CC(=O)O)CCN(CC(=O)O)CC1)C(=O)N[C@@H](CC(C)C)C(N)=O` [copper-64 labelled], “maximum metastasis uptake” read 17.9 %IA/cc (dynamic PET; tamoxifen-induced PDAC mouse model, metastases; 27.5 min, CLDN4-expressing tumours).
`CS(C)(=O)=Nc1ccc(-c2ccc(-c3nc4cc(O[C@@H]5CO[C@H]6[C@@H]5OC[C@H]6O)[nH]c4cc3F)cc2)cc1` has an inhibition of 38% (GABBR1 (Homo sapiens, UniProt Q9UBS5); agonist response, antagonist; 10 µM; relative to: control agonist response).
The relative abundance of `COc1ccccc1-c1n[nH]c2nc(NC3CCN(C(=O)Cc4ccc(F)cc4F)CC3)ncc12` is reported as 1.02 (bead binding, competition bead pull-down, measured: LMJF.35.0370; Leishmania donovani axenic amastigote extract; 10 µM; relative to: vehicle).

Some of these lines once more:
The tissue uptake of `N=C(N)NCCC[C@@H]1NC(=O)[C@H](CCCCNC(=O)CCC(NC(=S)Nc2ccc(CC3CN(CC(=O)O)CCN(CC(=O)O)CCN(CC(=O)O)CCN3CC(=O)O)cc2)C(=O)NCCCC[C@@H]2NC(=O)[C@@H](Cc3ccc(O)cc3)NC(=O)[C@H](CC(=O)O)NC(=O)CNC(=O)[C@H](CCCNC(=N)N)NC2=O)NC(=O)[C@@H](Cc2ccc(O)cc2)NC(=O)[C@H](CC(=O)O)NC(=O)CNC1=O` (stereo partly drawn) [scandium-44 labelled] is reported as 0.064 ± 0.016 %ID/g (ex vivo γ-counting; female athymic nude mice, U-87 MG xenograft, spleen; intravenous, 4 h, together with: cRGD 50 mg/kg blocking).
The inhibition of `CC(C)[C@H]1NC(=O)C[C@H]2/C=C/CCSSC[C@@H](NC1=O)C(=O)N[C@H](Cc1cccc3ccccc13)C(=O)NCC(=O)O2` is reported as 0.189% (NUAK1 (Homo sapiens, UniProt O60285); enzyme activity, inhibitor; 10 µM).
`Cc1ccc(N2CC3CCC(C2)N3C)cc1C(=O)N[C@H](C)c1cc(-c2cnn(C)c2)nc2ccccc12` has a remaining activity of 96.9% (Caspase-3 (CASP3, Homo sapiens, UniProt P42574); enzyme activity; 30 µM, 0.5 h).
